Assay results from different studies.
± gives the spread as reported.
NMBR: Neuromedin-B receptor (NMBR, Homo sapiens, UniProt P28336)
UniProt P28336, sequence (whole entry, looked up): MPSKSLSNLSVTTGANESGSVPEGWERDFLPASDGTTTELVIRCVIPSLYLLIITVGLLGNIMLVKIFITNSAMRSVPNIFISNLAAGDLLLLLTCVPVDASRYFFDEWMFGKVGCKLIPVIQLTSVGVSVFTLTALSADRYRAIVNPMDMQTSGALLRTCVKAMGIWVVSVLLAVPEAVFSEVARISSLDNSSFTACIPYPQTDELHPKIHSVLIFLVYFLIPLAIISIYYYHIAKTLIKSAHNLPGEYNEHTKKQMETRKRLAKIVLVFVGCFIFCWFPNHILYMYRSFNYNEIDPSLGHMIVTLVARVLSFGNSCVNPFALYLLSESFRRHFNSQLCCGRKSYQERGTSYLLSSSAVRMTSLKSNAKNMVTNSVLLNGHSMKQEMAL
LPAR2: Lysophosphatidic acid receptor 2 (LPAR2, Homo sapiens, UniProt Q9HBW0)
UniProt Q9HBW0, sequence (whole entry, looked up): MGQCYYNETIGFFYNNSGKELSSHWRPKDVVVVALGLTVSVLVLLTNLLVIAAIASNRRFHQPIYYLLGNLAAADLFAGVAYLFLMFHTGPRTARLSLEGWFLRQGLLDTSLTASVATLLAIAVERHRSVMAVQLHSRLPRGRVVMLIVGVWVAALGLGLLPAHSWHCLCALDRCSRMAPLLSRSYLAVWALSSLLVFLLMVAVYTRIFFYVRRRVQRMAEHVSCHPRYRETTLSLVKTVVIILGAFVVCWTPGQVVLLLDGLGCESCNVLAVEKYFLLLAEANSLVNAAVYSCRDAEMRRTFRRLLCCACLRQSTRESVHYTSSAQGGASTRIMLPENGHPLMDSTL
TLR8: Toll-like receptor 8 (TLR8, Homo sapiens, UniProt Q9NR97)
UniProt Q9NR97, sequence (whole entry, looked up): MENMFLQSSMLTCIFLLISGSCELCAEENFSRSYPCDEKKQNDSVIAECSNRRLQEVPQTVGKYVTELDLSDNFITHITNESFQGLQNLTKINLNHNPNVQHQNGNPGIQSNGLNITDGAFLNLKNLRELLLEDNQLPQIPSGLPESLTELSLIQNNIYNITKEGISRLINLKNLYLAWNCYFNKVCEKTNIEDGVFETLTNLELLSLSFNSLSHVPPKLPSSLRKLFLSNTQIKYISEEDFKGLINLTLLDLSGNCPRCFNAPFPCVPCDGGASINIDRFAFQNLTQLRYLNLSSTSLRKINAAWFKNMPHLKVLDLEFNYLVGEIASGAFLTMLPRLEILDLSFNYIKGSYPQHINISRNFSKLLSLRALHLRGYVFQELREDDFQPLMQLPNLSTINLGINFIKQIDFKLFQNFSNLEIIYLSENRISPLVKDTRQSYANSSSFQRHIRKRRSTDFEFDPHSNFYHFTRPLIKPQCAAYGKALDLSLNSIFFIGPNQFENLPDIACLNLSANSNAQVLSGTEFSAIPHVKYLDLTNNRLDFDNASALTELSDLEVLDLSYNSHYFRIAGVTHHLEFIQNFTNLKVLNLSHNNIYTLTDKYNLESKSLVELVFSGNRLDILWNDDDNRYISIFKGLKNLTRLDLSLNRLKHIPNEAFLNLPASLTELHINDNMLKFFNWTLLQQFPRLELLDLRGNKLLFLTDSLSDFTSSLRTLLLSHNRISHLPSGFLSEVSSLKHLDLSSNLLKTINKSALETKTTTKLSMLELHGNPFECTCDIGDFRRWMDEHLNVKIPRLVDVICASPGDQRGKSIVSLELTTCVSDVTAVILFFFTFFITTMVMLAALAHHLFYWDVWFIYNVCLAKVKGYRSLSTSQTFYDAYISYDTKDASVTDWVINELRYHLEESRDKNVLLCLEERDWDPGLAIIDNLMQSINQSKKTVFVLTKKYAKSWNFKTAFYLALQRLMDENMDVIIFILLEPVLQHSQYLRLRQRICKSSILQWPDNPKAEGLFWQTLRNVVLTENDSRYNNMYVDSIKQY
SCTR: Secretin receptor (SCTR, Homo sapiens, UniProt P47872)
UniProt P47872, sequence (whole entry, looked up): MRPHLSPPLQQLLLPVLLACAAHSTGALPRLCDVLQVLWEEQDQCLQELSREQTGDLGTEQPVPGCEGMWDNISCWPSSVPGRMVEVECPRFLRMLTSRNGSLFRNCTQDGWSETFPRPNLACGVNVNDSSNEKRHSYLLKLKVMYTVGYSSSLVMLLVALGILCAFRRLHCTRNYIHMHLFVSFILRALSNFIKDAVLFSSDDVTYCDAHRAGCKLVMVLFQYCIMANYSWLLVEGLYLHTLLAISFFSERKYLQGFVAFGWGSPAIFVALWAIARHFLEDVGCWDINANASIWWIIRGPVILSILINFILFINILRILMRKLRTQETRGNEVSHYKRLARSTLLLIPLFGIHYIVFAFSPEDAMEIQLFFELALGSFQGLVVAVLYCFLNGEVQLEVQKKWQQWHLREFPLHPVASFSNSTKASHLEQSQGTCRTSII
UniProt Q92847, sequence (whole entry, looked up): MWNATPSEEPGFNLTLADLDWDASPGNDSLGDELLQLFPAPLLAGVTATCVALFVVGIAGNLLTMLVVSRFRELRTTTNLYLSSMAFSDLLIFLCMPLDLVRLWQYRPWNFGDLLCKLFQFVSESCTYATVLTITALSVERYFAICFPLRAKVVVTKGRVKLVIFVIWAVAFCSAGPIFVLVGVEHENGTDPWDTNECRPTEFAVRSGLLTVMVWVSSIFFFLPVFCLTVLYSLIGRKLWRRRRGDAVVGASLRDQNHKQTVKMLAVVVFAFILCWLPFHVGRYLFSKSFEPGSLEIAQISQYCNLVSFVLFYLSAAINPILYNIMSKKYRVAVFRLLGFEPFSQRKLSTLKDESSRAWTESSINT
UniProt P14867, sequence (whole entry, looked up): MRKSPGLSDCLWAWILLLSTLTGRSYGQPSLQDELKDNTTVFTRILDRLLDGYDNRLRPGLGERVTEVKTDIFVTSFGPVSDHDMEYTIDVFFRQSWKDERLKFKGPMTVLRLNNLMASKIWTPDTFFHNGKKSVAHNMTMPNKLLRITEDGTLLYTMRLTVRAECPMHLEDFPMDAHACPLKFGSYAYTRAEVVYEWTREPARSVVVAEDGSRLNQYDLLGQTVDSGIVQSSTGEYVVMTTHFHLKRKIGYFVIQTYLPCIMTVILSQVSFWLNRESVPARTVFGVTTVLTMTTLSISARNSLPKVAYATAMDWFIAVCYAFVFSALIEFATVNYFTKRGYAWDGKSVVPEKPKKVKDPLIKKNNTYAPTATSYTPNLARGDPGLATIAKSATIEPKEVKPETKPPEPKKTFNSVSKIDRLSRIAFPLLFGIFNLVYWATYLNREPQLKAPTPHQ
UniProt P18507, sequence (whole entry, looked up): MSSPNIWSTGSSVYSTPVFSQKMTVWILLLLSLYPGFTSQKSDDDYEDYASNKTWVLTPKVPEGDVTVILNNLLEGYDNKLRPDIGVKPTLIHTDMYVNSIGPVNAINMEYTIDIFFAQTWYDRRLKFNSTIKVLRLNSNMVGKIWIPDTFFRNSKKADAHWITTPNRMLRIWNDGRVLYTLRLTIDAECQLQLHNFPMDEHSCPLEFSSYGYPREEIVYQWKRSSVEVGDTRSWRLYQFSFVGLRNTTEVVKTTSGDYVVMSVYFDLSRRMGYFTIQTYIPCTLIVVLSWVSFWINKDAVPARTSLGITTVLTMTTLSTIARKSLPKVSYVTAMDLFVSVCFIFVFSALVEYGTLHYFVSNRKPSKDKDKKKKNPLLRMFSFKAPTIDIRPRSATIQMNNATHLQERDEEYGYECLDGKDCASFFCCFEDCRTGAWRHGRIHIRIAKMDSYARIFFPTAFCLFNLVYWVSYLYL
UniProt Q61143, sequence (whole entry, unmodified, looked up): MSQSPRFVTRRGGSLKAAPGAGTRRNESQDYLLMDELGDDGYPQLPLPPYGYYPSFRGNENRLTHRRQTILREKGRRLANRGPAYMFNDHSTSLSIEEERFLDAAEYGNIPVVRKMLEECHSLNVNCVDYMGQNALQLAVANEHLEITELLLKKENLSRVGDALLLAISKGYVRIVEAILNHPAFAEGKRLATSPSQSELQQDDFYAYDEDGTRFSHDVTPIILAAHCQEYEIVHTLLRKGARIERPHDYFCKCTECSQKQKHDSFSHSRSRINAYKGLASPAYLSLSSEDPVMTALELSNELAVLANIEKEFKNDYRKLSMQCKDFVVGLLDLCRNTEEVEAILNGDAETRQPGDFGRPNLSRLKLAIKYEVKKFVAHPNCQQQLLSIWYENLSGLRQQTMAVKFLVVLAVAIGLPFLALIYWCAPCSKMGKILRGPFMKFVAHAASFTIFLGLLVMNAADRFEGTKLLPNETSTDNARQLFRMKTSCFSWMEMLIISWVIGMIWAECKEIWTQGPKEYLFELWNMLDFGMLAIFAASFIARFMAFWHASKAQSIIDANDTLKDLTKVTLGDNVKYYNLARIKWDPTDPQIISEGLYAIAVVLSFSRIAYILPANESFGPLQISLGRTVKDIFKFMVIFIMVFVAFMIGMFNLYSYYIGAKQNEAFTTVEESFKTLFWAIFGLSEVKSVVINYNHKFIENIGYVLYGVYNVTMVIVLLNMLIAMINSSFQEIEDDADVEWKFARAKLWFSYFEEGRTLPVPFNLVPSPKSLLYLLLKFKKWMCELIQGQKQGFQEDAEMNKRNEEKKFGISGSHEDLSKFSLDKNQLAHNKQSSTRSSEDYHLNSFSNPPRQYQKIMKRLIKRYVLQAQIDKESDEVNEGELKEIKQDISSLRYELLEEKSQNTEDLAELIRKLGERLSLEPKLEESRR
UniProt P47870, sequence (whole entry, looked up): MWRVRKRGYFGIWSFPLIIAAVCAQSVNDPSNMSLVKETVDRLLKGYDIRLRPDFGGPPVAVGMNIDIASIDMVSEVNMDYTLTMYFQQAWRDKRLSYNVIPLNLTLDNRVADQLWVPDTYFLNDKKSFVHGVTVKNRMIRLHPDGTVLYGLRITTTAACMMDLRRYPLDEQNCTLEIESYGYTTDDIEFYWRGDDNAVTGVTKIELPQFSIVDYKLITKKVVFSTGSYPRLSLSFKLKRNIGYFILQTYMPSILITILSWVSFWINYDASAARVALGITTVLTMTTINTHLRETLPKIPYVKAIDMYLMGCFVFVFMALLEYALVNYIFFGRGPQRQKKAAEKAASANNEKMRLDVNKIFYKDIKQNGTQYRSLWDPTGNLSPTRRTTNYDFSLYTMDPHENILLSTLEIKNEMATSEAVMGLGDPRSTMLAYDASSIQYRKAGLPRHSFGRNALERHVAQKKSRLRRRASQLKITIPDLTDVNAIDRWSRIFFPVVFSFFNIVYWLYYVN

CSCC[C@H](NC(=O)[C@H](CC(C)C)NC(=O)[C@H](Cc1c[nH]cn1)NC(=O)[C@@H](C)NC(=O)[C@@H](NC(=O)[C@H](C)NC(=O)[C@H](Cc1c[nH]c2ccccc12)NC(=O)[C@H](CCC(N)=O)NC(=O)[C@H](CC(N)=O)NC(=O)CNC(=O)[C@H](CC(C)C)NC(=O)[C@H](CCCNC(=N)N)NC(=O)[C@H](CCC(N)=O)NC(=O)[C@@H]1CCC(=O)N1)C(C)C)C(N)=O  EC50 (NMBR; inositol phosphate generation, agonist; BALB/3T3 (NMBR); 45 min, 37 °C): 0.00489 ± 0.00018 µM
CCCCCCCC/C=C\CCCCCCCC(=O)OC[C@@H]1OCC=C[C@H]1OP(=O)(O)S (stereo partly shown)  EC50 (LPAR2; G protein activation, agonist): 1.9 µM
O=C(c1cc2c(s1)CCCCC2)N1CCC(n2c(=O)[nH]c3ccccc32)CC1  EC50 (Trpc6 (Mus musculus, UniProt Q61143, K675R); channel activation, agonist, whole-cell patch clamp): 4.76 ± 0.41 µM
CCCCOc1nc(N)c2[nH]c(=O)n(CCCN(CCCN3CCOCC3)Cc3cccc(CC(=O)O)c3)c2n1  EC50 (TLR8; reporter gene, agonist): > 10 µM
COc1ccc(-c2cc(C(F)(F)F)nc(NCc3ccc(Cl)cc3)n2)cc1OC  EC50 (SCTR; increase of tracer binding, TR-FRET; HEK293 membranes; with: Fluo-Sec 6 nM): 3.1 ± 2.4 µM
CCCCOc1nc(N)c2[nH]c(=O)n(CC3CCN(CCO)CC3)c2n1  EC50 (TLR8; reporter gene, agonist): < 50 µM
COc1cccc(-c2cc(C(F)(F)F)nc(NCc3ccc(F)cc3)n2)c1  EC50 (SCTR; cAMP, agonist): 19 µM
COc1ccc(C(=O)c2c(C(=O)NCCCN(C)C)oc3ccc(Cl)cc3c2=O)cc1OC  EC50 (GHSR (Homo sapiens, UniProt Q92847); G protein activation, agonist, BRET): > 1 µM
COc1ccc(-c2cc(C(F)(F)F)nc(S(=O)(=O)CCCC(=O)Nc3c(F)cc(F)cc3Br)n2)cc1OC  EC50 (SCTR; increase of tracer binding, TR-FRET; HEK293 membranes; with: Fluo-Sec 6 nM): 3.9 ± 2.7 µM
CC[C@H](C)NC(=O)/C(=C\Nc1ccc(Cl)cc1)C(=O)c1ccccc1Cl  EC50 (GABA-A receptor; alpha-1/beta-2/gamma-2 (Homo sapiens, UniProt P14867+P18507+P47870); GABA current potentiation, positive modulator, two-electrode voltage clamp; Xenopus laevis oocytes; 30 s preincubation, with: GABA EC10): 0.36 ± 0.05 µM
CC(C)C[C@@H]1NC(=O)[C@H](Cc2c[nH]cn2)NC(=O)[C@@H](C)NC(=O)[C@H](C(C)C)NC(=O)[C@H](C)NC(=O)[C@H](Cc2c[nH]c3ccccc23)NC(=O)[C@H](CCC(N)=O)NC(=O)[C@H](N)CSSC[C@@H](C(N)=O)NC1=O  EC50 (NMBR; inositol phosphate generation, agonist; BALB/3T3 expressing human NMBR; 45 min, 37 °C; baseline: 1 µM neuromedin B): 0.912 ± 0.045 µM
COc1cccc(-c2cc(C(F)(F)F)nc(NCc3ccccc3)n2)c1  EC50 (SCTR; cAMP, agonist): 45 µM
CCCCCCCC/C=C\CCCCCCCC(=O)OC[C@H]1OCCC[C@@H]1OP(=O)(O)S (stereo partly shown)  EC50 (LPAR2; G protein activation, agonist): 1.6 µM
